Experimental data pooled from the literature.
A part holds a random share of what one study measured.

Sample 1 — technique: RNA Bind-n-Seq; form: RNA; sample: in vitro; concentration: 200 nM; notes: whole 134-nt RNA, ends assumed; together with: 150 mM KCl; baseline: input library; reading: higher = stronger binding
Target: Fragile X messenger ribonucleoprotein 1, C-terminal low-complexity region (Fmr1, Mus musculus, UniProt P35922)
For `GGGAGUUCUACAGUCCGACGAUCUCAAGUCCUGUGCUACACAUCGUAUGUACCGAAUCGGUUUGGGGUUUGGUUUGGGAAAGUAUUAUGUUACGCCGUUCGGAUCUGCACUUCUGGAAUUCUCGGGUGUCAAGG`, the log2 enrichment was -0.298.
For `GGGAGUUCUACAGUCCGACGAUCUCUGCUAAAGAGAAAGGAAAAUUUGAAGAUAUGGCAAAAGCGGACAAGGCCCGUUAUGAAAGAGAAAUGAAAACCUAUAUCCCUCCCAAAUGGAAUUCUCGGGUGUCAAGG`, the log2 enrichment was 0.144.
`GGGAGUUCUACAGUCCGACGAUCAAGUCCUGUGCUACACAUCGUAUGUACCGAAUCGGAAAGGAAAAAAAGGAAAAAGGAAAGUAUUAUGUUACGCCGUUCGGAUCUGCACUUUGGAAUUCUCGGGUGUCAAGG` has a log2 enrichment of -0.751.

Sample 2 — technique: protein-binding microarray; form: double-stranded DNA, one strand shown; sample: in vitro; concentration: 2200 nM top; notes: 60-bp whole probe; together with: salmon DNA 0.4 mg/ml; baseline: random background probes; reading: higher = stronger binding
Target: Interferon regulatory factor 7, full length, phosphomimetic (IRF7, Homo sapiens, UniProt Q92985, residues 1-503, S471D/S472D/S475D/S476D/S477D/S483D/S484D/S487D)
Residues (chain): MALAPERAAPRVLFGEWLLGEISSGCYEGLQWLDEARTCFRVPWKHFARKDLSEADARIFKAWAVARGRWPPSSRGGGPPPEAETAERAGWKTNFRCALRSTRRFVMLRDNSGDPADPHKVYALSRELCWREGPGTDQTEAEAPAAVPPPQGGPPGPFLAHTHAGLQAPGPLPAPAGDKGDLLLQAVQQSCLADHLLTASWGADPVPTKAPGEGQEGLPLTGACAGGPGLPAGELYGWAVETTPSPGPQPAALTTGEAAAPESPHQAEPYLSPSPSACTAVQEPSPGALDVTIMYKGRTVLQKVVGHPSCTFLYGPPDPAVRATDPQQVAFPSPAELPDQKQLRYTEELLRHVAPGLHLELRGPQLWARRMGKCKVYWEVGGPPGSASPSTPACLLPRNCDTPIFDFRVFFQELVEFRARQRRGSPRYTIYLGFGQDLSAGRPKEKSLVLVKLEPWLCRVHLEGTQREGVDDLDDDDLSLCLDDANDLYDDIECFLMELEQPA
For `GCCTAGCACGACGATTTCAGTTCAGAGACGTGCTAGGTCTTGATTCGCTTGACGCTGCTG`, “fitted relative affinity” read 1.72 z-score.
`GCCTAGCACTTAGAATTGAGTTTCGATTAGTGCTAGGTCTTGATTCGCTTGACGCTGCTG` — result for “fitted relative affinity”: 3.56 z-score.
`GCCTAGCACGACGGTTTAGACTATCGGGACGTGCTAGTCTTGATTCGCTTGACGCTGCTG`: “fitted relative affinity” 0.414 z-score.
For `GCCTAGCACTTAGGTTTGGGTTTCGGTTAGTGCTAGGTCTTGATTCGCTTGACGCTGCTG`, “fitted relative affinity” read 4.58 z-score.

Sample 3 — technique: RNAcompete; form: RNA; sample: in vitro; concentration: 20 nM; notes: 7-mer, probes averaged, single round; baseline: mean of 7-mers; reading: higher = stronger binding
Target: PABPC1L2, full length, GST fusion (mouse, UniProt A0ABA7IW68)
Residues (chain): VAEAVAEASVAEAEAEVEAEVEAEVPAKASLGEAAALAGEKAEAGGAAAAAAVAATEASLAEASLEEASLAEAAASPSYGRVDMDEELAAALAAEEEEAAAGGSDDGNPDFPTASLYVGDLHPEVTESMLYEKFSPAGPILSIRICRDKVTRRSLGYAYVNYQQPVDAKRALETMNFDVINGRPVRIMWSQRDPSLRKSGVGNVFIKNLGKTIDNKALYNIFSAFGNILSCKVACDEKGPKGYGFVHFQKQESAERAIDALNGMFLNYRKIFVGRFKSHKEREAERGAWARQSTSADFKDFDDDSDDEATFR
The 7-mer Z-score of `CAUCGCC` is reported as -0.396.
`CGCAGCC` gave a 7-mer Z-score of -0.331.
The 7-mer Z-score of `UCGAAAA` is reported as 3.42.
The 7-mer Z-score of `AGUUGAA` is reported as -0.0681.
`ACACUGU` has a 7-mer Z-score of -0.139.

Single results of other studies
With `PhoQ, residues 284 288 289 292 302 303 AGHLVA` the fold induction was 9.18 (PhoP, residues 12 14 15 18 19 IQSYL (Escherichia coli, UniProt P23836); Sort-seq, item: YFP reporter; E. coli; PhoQ-PhoP variant library, together with: 10 µM Mg2+; baseline: high Mg2+ state, higher = stronger signaling).

Repeated from above (sample 2):
For `GCCTAGCACGACGATTTCAGTTCAGAGACGTGCTAGGTCTTGATTCGCTTGACGCTGCTG`, “fitted relative affinity” read 1.72 z-score.
`GCCTAGCACTTAGAATTGAGTTTCGATTAGTGCTAGGTCTTGATTCGCTTGACGCTGCTG` — result for “fitted relative affinity”: 3.56 z-score.
